{"data": "Experimental data of several laboratories", "note": "A part holds a random share of what one study measured. Substitutions count along the parent as printed."}
{"data": "Set 1", "target": "RNA binding protein fox-1 homolog 2, RRM domain, GST-SBP tag (RBFOX2, Homo sapiens, UniProt O43251-10, residues 100-194)", "technique": "RNA Bind-n-Seq", "molecule type": "RNA", "sample": "in vitro", "tested at": "365 nM", "notes": "natural RNA segment, single round, ends assumed", "baseline": "no-protein control", "reading": "higher = stronger binding", "constant ends, left off below": "GGGAGUUCUACAGUCCGACGAUC … UGGAAUUCUCGGGUGCCAA", "Target sequence (chain)": "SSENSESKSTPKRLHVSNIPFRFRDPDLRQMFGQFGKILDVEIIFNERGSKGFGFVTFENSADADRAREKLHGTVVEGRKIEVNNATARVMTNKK"}
{"Oligonucleotide": "UAAAAAUGGACAGCCAAUGUGUUCAGCCGCUCUGGCCUGUACCCCCUGGGGCCUCUAGUGUAUUGUAUUAUAUUUCUGUGGAAAGUCAUGUUUAGUCAAAUUGGAAUCCA", "RBNS enrichment (R)": 0.638}
{"Oligonucleotide": "UAGGGGCAAAGGCGUGUGGAUGGUGCCAAUGAAACCCUUUACCUAUUUAAUAAAAACGGAUACAUUUAUACUGUGGACAGCUUUCUUUGGGGCAUACCAUAGUCUCCCUA", "RBNS enrichment (R)": 0.752}
{"Oligonucleotide": "UGCAAGUGACAUUCCUGCGAGCUUAGUGAUAUGGUCAAGUCCAUUGCAUCAGUAAUUUAUUUUUUUCUUCUUCUGUCUGUGAUAAUUGACUUGACUGAAUUAUGGCUUGG", "RBNS enrichment (R)": 1.02}
{"Oligonucleotide": "UCAGGUUUGUUUACCAUCUCUCCGAGCCUCCACCACACUCCCUGACCCACCCAACGUCUCCAGUUCUUAUUGUUCUCCUUCCUUCCUUCUUUCCUUUCCCUUCUCACCUC", "RBNS enrichment (R)": 1.18}
{"Oligonucleotide": "AUUCCAUAUUAAUACAAGGGGUUUGAACUGGACAUCCUAAUGAUGCAAUUACGUCAUCACCCAGCUGAUUCCGGGUGGUUGGCAAACUCAUCGUGUCUGUCCUGAGAGGC", "RBNS enrichment (R)": 0.242}
{"Oligonucleotide": "AUGGACCAGUUUCAGGGUGCGGGAGGUGCUGAACCUUUUCUGGCCACAAACCAUUAUAAAACCCAACAUAUAUACUGAAAAUACUGAGAACUGCUUUGAAAAUUUGGAAU", "RBNS enrichment (R)": 0.526}
{"Oligonucleotide": "UUUUGGGAGCUCCUCCAUCUCCAAUGGCUGGGAUUUGUGGCAGGGAUUCCACUCAGAACCUCUCUGGAAUUUGUGCCUGAUGUGCCUUCCACUGGAUUUUGGGGUUCCCA", "RBNS enrichment (R)": 0.378}
{"Oligonucleotide": "UUGAAAUGAUUAGAAAAUGUCAAGUAUUAUAAGCUGGUAUUUAAGAUGCUUGUAAAUACUAUUUAUGUUUUUAAUUUUGUAAAAUAAAGAUUUCUUUUUAACCACUGGCA", "RBNS enrichment (R)": 1.07}
{"data": "Set 2", "target": "Sal-like protein 4, full length isoform B (SALL4, Homo sapiens, UniProt Q9UJQ4-2, residues 1-616)", "technique": "universal PBM", "molecule type": "double-stranded DNA, one strand shown", "sample": "in vitro", "tested at": "not given", "notes": "8-mer, flanks averaged, mean of replicates", "reading": "higher = stronger binding"}
{"Oligonucleotide": "CCACAATC", "E-score": -0.0833}
{"Oligonucleotide": "ACCTGACT", "E-score": "2e-05"}
{"Oligonucleotide": "CAGGAGCA", "E-score": -0.22}
{"Oligonucleotide": "CGAACTCC", "E-score": -0.0628}
{"Oligonucleotide": "AGGAGTAA", "E-score": 0.114}
{"Oligonucleotide": "AGCTGCAG", "E-score": -0.126}
{"Oligonucleotide": "ACACCATA", "E-score": 0.194}
{"Oligonucleotide": "CCACAGGG", "E-score": -0.246}
{"Oligonucleotide": "AATTCGGG", "E-score": -0.00341}
{"Oligonucleotide": "TGGATCAA", "E-score": 0.118}
{"Oligonucleotide": "GACAGTAC", "E-score": 0.0853}
{"Oligonucleotide": "TGGAAAAA", "E-score": 0.233}
{"Oligonucleotide": "GGGCGGGA", "E-score": -0.264}
{"Oligonucleotide": "AAAAAATA", "E-score": 0.419}
{"Oligonucleotide": "ACCTGCGA", "E-score": -0.115}
{"Oligonucleotide": "CAGCAACC", "E-score": -0.153}
{"Oligonucleotide": "CCAGGGGG", "E-score": -0.266}
{"Oligonucleotide": "GGCCTCTA", "E-score": -0.267}
{"Oligonucleotide": "AACTGCAC", "E-score": 0.0875}
{"Oligonucleotide": "CTGGTAAG", "E-score": 0.0239}
{"Oligonucleotide": "GTTCTCTA", "E-score": 0.0945}
{"Oligonucleotide": "GGAGCCCA", "E-score": -0.277}
{"Oligonucleotide": "CGTTCAGA", "E-score": -0.161}
{"Oligonucleotide": "GAAGCGTA", "E-score": -0.11}
{"Oligonucleotide": "AATGGTCT", "E-score": 0.0761}
{"data": "Set 3", "target": "UBE2M UBC core domain (UniProt P61081)", "technique": "yeast two-hybrid", "sample": "yeast", "notes": "mostly zero background", "baseline": "not given", "reading": "higher = stronger interaction", "B1": "TRIM22 RING domain (UniProt Q8IYM9); chain VKVDIEKEVTCPICLELLTEPLSLDCGHSFCQACITAKIKESVIISRGESSCPVCQTRFQPGNLRP", "B2": "RNF31 RING domain (UniProt Q96EP0); chain AFLRRLLAQECAVCGWALPHNRMQALTSCECTICPDCFRQHFTIALKEKHITDMVCPACGRPDLTDDTQLL", "B3": "TRIM31 RING domain (UniProt Q9BZY9); chain FVNKLQEEVICPICLDILQKPVTIDCGHNFCLKCITQIGETSCGFFKCPLCKTSVRKNAIRF", "B4": "TRIM26 RING domain (UniProt Q12899); chain PLRSLEEEVTCSICLDYLRDPVTIDCGHVFCRSCTTDVRPISGSRPVCPLCKKPFKKENIRP", "B5": "RNF122 RING domain (UniProt Q9H9V4); chain AKKLQLYGQTCAVCLEDFKGKDELGVLPCQHAFHRKCLVKWLEVRCVCPMCNKPIASPSEAT", "B6": "MEX3B RING domain (UniProt Q6ZN04); chain SGLRRKGSRDCSVCFESEVIAALVPCGHNLFCMECANRICEKSEPECPVCHTAVTQAIRIF", "B7": "TRIM37 RING domain (UniProt O94972); chain SVESIAEVFRCFICMEKLRDARLCPHCSKLCCFSCIRRWLTEQRAQCPHCRAPLQLRELVN", "sequence of UniProt P61081 (whole entry, looked up)": "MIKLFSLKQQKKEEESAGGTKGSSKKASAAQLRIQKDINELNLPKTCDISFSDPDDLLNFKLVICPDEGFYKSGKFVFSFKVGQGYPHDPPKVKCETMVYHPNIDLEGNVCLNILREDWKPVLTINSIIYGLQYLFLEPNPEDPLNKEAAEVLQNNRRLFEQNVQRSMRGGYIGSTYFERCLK"}
{"Sequence": "AEADPLGRFTCPVCLEVYEKPVQVPCGHVFCSACLQECLKPKKPVCGVCRSALAPGVRAV (RNF114 RING domain (UniProt Q9Y508))", "lacZ reporter activity": 0}
{"Sequence": "B1 (TRIM22 RING domain)", "lacZ reporter activity": 0}
{"Sequence": "B2 (RNF31 RING domain)", "lacZ reporter activity": 0}
{"Sequence": "B3 (TRIM31 RING domain)", "lacZ reporter activity": 0}
{"Sequence": "B4 (TRIM26 RING domain)", "lacZ reporter activity": 0}
{"Sequence": "RYRQMEERITCPICIDSHIRLVFQCGHGACAPCGSALSACPICRQPIRDRIQIF (MIB2 RING domain (UniProt Q96AX9))", "lacZ reporter activity": 0}
{"Sequence": "B5 (RNF122 RING domain)", "lacZ reporter activity": 0}
{"Sequence": "B6 (MEX3B RING domain)", "lacZ reporter activity": 0}
{"Sequence": "YCEMGSTFQLCKICAENDKDVKIEPCGHLMCTSCLTAWQESDGQGCPFCRCEIKGTEPII (CBLB RING domain (UniProt Q13191))", "lacZ reporter activity": 0}
{"Sequence": "MNDVLENELQCIICSEYFIEAVTLNCAHSFCSYCINEWMKRKIECPICRKDIKSKTYSL (RNF8 RING domain (UniProt O76064))", "lacZ reporter activity": 0}
{"Sequence": "B7 (TRIM37 RING domain)", "lacZ reporter activity": 0}
{"data": "Set 4", "target": "ABI1, truncated, D143A, DHFR fusion (Arabidopsis thaliana)", "technique": "DHFR PCA, deep sequencing", "sample": "yeast", "notes": "methotrexate growth selection, single substitutions", "with": "(+)-ABA 2500 µM", "baseline": "wild-type fitted maximum", "reading": "higher = stronger binding", "starting sequence": "PYL1, truncated, DHFR fusion (Arabidopsis thaliana); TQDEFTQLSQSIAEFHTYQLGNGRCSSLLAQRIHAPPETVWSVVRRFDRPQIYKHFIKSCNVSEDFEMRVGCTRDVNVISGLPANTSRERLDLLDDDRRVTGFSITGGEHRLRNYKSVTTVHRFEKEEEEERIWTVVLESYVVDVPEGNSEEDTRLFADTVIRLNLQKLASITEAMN"}
{"Variant": "G81Q", "relative binding score [%]": 57.8}
{"Variant": "I33T", "relative binding score [%]": 77.9}
{"Variant": "T154H", "relative binding score [%]": 17.4}
{"Variant": "S104G", "relative binding score [%]": 79.8}
{"Variant": "I133N", "relative binding score [%]": 108}
{"Variant": "Q167T", "relative binding score [%]": 96}
{"Variant": "T6A", "relative binding score [%]": 105}
{"Variant": "D48E", "relative binding score [%]": 99.7}
{"Variant": "V40R", "relative binding score [%]": -20.4}
{"Variant": "I162A", "relative binding score [%]": 71.6}
{"Variant": "C72I", "relative binding score [%]": 93.4}
{"Variant": "G108M", "relative binding score [%]": 66.5}
{"Variant": "D65S", "relative binding score [%]": 96.3}
{"Variant": "K116T", "relative binding score [%]": 94.9}
{"Variant": "L28T", "relative binding score [%]": 95.1}
{"Variant": "H16P", "relative binding score [%]": 29.4}
{"Variant": "E127S", "relative binding score [%]": 105}
{"Variant": "G108K", "relative binding score [%]": 75.8}
{"Variant": "D48T", "relative binding score [%]": 83.4}
{"Variant": "L94W", "relative binding score [%]": 101}
{"Variant": "K54T", "relative binding score [%]": -3.34}
{"Variant": "P146L", "relative binding score [%]": 74.4}
{"Variant": "D96R", "relative binding score [%]": 65.6}
{"Variant": "T17I", "relative binding score [%]": 85}
{"data": "Set 5", "target": "CCNA2, cyclin fold, Cln2 fusion (human)", "technique": "yeast growth competition, sequencing", "sample": "yeast", "notes": "strong parent motif", "baseline": "not given", "reading": "higher = stronger binding", "starting sequence": "RBL1 docking peptide (human); GSAKRRLFGEDPP"}
{"Variant": "GSAKRRLFGEDIP [P12I]", "normalised enrichment score": 5.48}
{"Variant": "GDAKRRLFGEDPP [S2D]", "normalised enrichment score": 3.35}
{"Variant": "GSAKRRLFGEPPP [D11P]", "normalised enrichment score": 4.54}
{"Variant": "GSDKRRLFGEDPP [A3D]", "normalised enrichment score": -0.398}
{"Variant": "GSAKRRLFGEDYP [P12Y]", "normalised enrichment score": 5.96}
{"Variant": "GSAYRRLFGEDPP [K4Y]", "normalised enrichment score": 3.49}
{"Variant": "GSADRRLFGEDPP [K4D]", "normalised enrichment score": -0.234}
{"Variant": "GSAKRRLFGENPP [D11N]", "normalised enrichment score": 5.77}
{"note": "Some of these lines once more (set 2):"}
{"Oligonucleotide": "ACCTGCGA", "E-score": -0.115}
{"Oligonucleotide": "CAGCAACC", "E-score": -0.153}
{"Oligonucleotide": "CCAGGGGG", "E-score": -0.266}
{"Oligonucleotide": "GGCCTCTA", "E-score": -0.267}
